Assay results collected from several papers.
Protocols differ between the studies behind these lines.
PRKCB isoform beta-I: Protein kinase C beta type, isoform beta-I (PRKCB, Homo sapiens, UniProt P05771)
UniProt P05771, sequence (whole entry, looked up): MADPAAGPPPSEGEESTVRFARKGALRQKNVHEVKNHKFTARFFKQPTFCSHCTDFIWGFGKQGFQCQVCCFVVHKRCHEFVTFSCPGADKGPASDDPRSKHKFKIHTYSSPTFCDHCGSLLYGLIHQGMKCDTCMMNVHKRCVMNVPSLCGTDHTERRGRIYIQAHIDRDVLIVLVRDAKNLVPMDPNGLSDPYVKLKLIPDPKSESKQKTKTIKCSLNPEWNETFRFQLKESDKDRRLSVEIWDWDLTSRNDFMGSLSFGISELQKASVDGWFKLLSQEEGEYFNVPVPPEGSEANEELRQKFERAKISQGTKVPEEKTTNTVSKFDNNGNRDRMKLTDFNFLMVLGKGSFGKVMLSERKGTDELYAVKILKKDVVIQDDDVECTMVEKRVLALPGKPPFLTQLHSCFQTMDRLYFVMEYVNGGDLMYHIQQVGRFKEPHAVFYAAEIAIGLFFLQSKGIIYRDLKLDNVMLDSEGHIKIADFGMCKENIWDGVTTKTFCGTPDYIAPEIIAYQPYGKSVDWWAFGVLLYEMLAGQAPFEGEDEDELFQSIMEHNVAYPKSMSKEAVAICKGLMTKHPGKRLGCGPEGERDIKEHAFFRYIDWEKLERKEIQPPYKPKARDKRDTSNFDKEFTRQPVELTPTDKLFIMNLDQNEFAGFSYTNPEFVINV
PRKCB isoform beta-II: Protein kinase C beta type, isoform beta-II (PRKCB, Homo sapiens, UniProt P05771)

SMILES | target | test | conditions | scale | remaining activity
CNc1ncc2c(/C=C/C(=O)N3CCC(OC)CC3)nn(Cc3cccc(C(F)(F)F)c3)c2n1 | PRKCB isoform beta-I | inhibitor | 1 µM | reference: control | 95%
Cc1ccc(NC(=O)c2ccc(C)c(C(F)(F)F)c2)cc1C#Cc1nn(C2CCC(O)CC2)c2ncnc(N)c12 (stereo not drawn) | PRKCB isoform beta-II | enzyme activity | 10 µM, together with: ATP 10 µM |  | 99%
CC(C)c1ccc(NC(=O)c2cccs2)c(-c2nc3ccccc3[nH]c2=O)c1 | PRKCB isoform beta-II | kinase activity | 1 µM |  | 95%
COc1cc(F)ccc1-c1ncnc(Nc2cccc(C[S@](C)(=N)=O)c2)n1 | PRKCB isoform beta-I | kinase activity | 10 µM, together with: 10 µM ATP |  | 100%
COc1cc(Cl)c(C(=O)N[C@@H](CN[C@H]2CC[C@@H](N)CC2)Cc2ccc(C#N)cc2)cc1-c1ccc(CN[C@H](C)c2ccc(C)cc2)o1 | PRKCB isoform beta-II | enzyme activity, KinaseProfiler panel | 1 µM |  | 99%
c1cnc2ccc(Nc3nc(NC4CC4)c4nc[nH]c4n3)cc2c1 | Protein kinase C beta type (PRKCB, Homo sapiens, UniProt P05771) | kinase activity, inhibitor, SelectScreen kinase profiling | 1 µM | reference: control | 103%
Cc1cnc(NC2CCOCC2)nc1-n1cnc(C(=O)NC(CN)c2cc(F)cc(Cl)c2)c1 (stereo not drawn) | PRKCB isoform beta-I | radiometric | 1 µM |  | 101%
CCCOc1ccc(OC)c(F)c1C(=O)c1ccc(C(=O)N[C@@H]2CNC[C@H]2NC(=O)c2ccc3[nH]ncc3c2)cc1 | PRKCB isoform beta-II | kinase activity | 10 µM |  | 87%
CC(C)(O)[C@H]1CC[C@H](Nc2ccc3ncc(-c4cccc(C(F)(F)F)c4)n3n2)CC1 | PRKCB isoform beta-II | enzyme activity, inhibitor | 1 µM, together with: 10 µM ATP | reference: DMSO | 79.1%
CCN(CC)c1ccc(C2=NNC(=O)CC2C)cc1[N+](=O)[O-] (stereo not drawn) | PRKCB isoform beta-I | kinase activity, inhibitor | 10 µM |  | 94%
Cc1ccc(C(=O)NCc2ccsc2)cc1C#Cc1cn(C(C)C)c2ncnc(N)c12 | PRKCB isoform beta-I | kinase activity | 1 µM, together with: ATP at Km |  | 100%
Cc1cc(Nc2cc(N3CCN(C)CC3)nc(Sc3ccc(NC(=O)C4CC4)cc3)n2)[nH]n1 | PRKCB isoform beta-II | kinase activity, KinaseProfiler | 0.03 µM, species human | reference: control | 97%
CC(C)(C)c1nc2c(s1)c1nc(N)ncc1c1ccc(NS(=O)(=O)c3c(F)cccc3F)c(F)c12 | PRKCB isoform beta-II | kinase activity, radiometric 33PanQinase | 1 µM | reference: DMSO | 75%
COc1cc(-c2cncc3c2CN(C)Cc2cc(N4CCNCC4)ccc2-3)cc(OC)c1OC | PRKCB isoform beta-II | enzyme activity | 1 µM, together with: 10 µM ATP | reference: DMSO | 100%
Cc1cc(NC(=O)c2cccc3cc(-c4cccc5[nH]nc(N)c45)ccc23)ccc1F | PRKCB isoform beta-II | enzyme activity, kinase profiling panel | 0.1 µM |  | 95%

Excerpt of the above:
SMILES | target | test | conditions | scale | remaining activity
Cc1cnc(NC2CCOCC2)nc1-n1cnc(C(=O)NC(CN)c2cc(F)cc(Cl)c2)c1 (stereo not drawn) | PRKCB isoform beta-I | radiometric | 1 µM |  | 101%
COc1cc(F)ccc1-c1ncnc(Nc2cccc(C[S@](C)(=N)=O)c2)n1 | PRKCB isoform beta-I | kinase activity | 10 µM, together with: 10 µM ATP |  | 100%
